Published values of several laboratories.
Each numbered part is a random draw from the data of one study; scales do not carry over between parts. Substitutions count along the parent as printed.

Sample 1
Target: Hepatocyte nuclear factor 3-beta, forkhead domain (FOXA2, Homo sapiens, UniProt Q9Y261, residues 142-269)
Technique: protein-binding microarray
Form: double-stranded DNA, one strand shown
Sample: in vitro
Tested at: not given
Setting: k-mer, scored over probes, only values ≥0.25
Reading: higher = stronger binding
Residues (chain): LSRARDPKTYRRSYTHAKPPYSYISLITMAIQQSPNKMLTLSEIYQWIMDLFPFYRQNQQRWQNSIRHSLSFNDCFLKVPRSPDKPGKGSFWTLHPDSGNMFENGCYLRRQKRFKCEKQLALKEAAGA
Oligonucleotide	E-score
GTATTGTA	0.33
ACTTATGA	0.299
CATTGTAA	0.272
AATATGTA	0.345
GGTCTATA	0.272
ATCTCAAC	0.296
AATTTACA	0.252
CATGTTGA	0.331
GTGATGTA	0.281
GTTTGCGA	0.252
CATGATAA	0.282
CGCAAATA	0.282
ATGTGTTG	0.305

Sample 2
Target: ABI1, truncated, D143A, DHFR fusion (Arabidopsis thaliana)
Technique: DHFR PCA, deep sequencing
Sample: yeast
Setting: methotrexate growth selection, single substitutions
With: (+)-ABA 4.8 µM
Relative to: wild-type fitted maximum
Reading: higher = stronger binding
Starting sequence: PYL1, truncated, DHFR fusion (Arabidopsis thaliana); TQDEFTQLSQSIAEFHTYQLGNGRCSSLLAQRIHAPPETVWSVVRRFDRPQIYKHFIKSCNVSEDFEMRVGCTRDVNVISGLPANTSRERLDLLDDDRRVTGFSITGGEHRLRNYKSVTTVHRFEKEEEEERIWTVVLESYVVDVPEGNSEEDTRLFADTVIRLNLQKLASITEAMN
Change	relative binding score [%]
R111T	-7.17
P146N	1.43
I105M	11.3
I57H	8.12
G148V	4.5
K54R	16.7
L20E	77.1
N61V	79.5
I133Q	84.3
S27G	78.3
G148H	20.8

Sample 3
Target: CCNF, cyclin fold, Cln2 fusion (human)
Technique: yeast growth competition, sequencing
Sample: yeast
Setting: strong parent motif
Relative to: not given
Reading: higher = stronger binding
Starting sequence: CDKN1B docking peptide (human); PSACRNLFGPVDH
Change	normalised enrichment score
PSACRNLFGPVEH [D12E]	6.72
PTACRNLFGPVDH [S2T]	6.89
PSACRNHFGPVDH [L7H]	0.916
PSACRPLFGPVDH [N6P]	3.57
PSGCRNLFGPVDH [A3G]	3.2
PSACRNLFGPFDH [V11F]	7.09
PSACRNLFGPVDD [H13D]	6.57
PSACRNLFGPVSH [D12S]	7.2

Mixed results
Molecule	target	assay	test system	conditions	how to read	endpoint	result
PhoQ, residues 284 288 289 292 302 303 STVVAA	PhoP, residues 12 14 15 18 19 GHCSL (Escherichia coli, UniProt P23836)	Sort-seq, measured: YFP reporter	E. coli	PhoQ-PhoP variant library, with: 10 µM Mg2+	relative to: high Mg2+ state, higher = stronger signaling	fold induction	24.4

Excerpt of the above (sample 2):
Change	relative binding score [%]
L20E	77.1
N61V	79.5
I133Q	84.3
S27G	78.3
G148H	20.8
